Results pooled from the literature.
Each numbered part is a random draw from the data of one study; scales do not carry over between parts. Positions count from the first letter of the parent shown.

Sample 1
Target: Interferon regulatory factor 3, full length, phosphomimetic (IRF3, Homo sapiens, UniProt Q14653, residues 1-427, S386D/S396D/S398D/S402D/T404D/S405D)
Method: protein-binding microarray
Molecule type: double-stranded DNA, one strand shown
Sample: in vitro
Concentration: 2540 nM top
Setting: 60-bp whole probe
Together with: salmon DNA 0.4 mg/ml
Reference: random background probes
Reading: higher = stronger binding
All sequences stand within: GCCTAGCAC … GTCTTGATTCGCTTGACGCTGCTG
Construct (chain): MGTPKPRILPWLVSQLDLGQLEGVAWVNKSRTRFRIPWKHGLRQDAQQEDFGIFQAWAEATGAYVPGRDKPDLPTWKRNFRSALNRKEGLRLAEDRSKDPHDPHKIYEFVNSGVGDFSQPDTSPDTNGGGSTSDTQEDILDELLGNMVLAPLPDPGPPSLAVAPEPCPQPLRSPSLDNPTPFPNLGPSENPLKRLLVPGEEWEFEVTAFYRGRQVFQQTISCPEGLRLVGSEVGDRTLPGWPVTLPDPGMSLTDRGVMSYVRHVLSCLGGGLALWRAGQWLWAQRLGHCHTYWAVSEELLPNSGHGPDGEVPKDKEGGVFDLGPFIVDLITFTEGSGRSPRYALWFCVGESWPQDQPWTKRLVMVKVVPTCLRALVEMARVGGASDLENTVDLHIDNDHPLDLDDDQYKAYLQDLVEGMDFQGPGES
Under “fitted relative affinity”, `TTAGATCTCTGACTGGATTAGTGCTAG` is recorded as -0.362 z-score.
Under “fitted relative affinity”, `GACGATTTCAGACTGGAGAGGTGCTAG` is recorded as 0.946 z-score.
`TTAGAACTGATTTTCGATTAGTGCTAG` — result for “fitted relative affinity”: 0.9 z-score.
Under “fitted relative affinity”, `TCACATGTAAATAATCAGACTGTGCTA` is recorded as -0.027 z-score.
`TTCGGTCTCGGTCTCGGTTAGTGCTAG` — result for “fitted relative affinity”: 1.91 z-score.
`TTAGATTTCAGACTGGATTAGTGCTAG` — result for “fitted relative affinity”: 0.68 z-score.

Sample 2
Target: ABI1, truncated, D143A, DHFR fusion (Arabidopsis thaliana)
Method: DHFR PCA, deep sequencing
Sample: yeast
Setting: methotrexate growth selection, single substitutions
Together with: (+)-ABA 200 µM
Reference: wild-type fitted maximum
Reading: higher = stronger binding
Parent: PYL1, truncated, DHFR fusion (Arabidopsis thaliana); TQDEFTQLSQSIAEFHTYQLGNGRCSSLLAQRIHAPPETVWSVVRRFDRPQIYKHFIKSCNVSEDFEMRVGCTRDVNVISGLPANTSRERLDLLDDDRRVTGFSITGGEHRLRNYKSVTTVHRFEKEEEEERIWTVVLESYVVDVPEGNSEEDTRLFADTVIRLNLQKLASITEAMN; partner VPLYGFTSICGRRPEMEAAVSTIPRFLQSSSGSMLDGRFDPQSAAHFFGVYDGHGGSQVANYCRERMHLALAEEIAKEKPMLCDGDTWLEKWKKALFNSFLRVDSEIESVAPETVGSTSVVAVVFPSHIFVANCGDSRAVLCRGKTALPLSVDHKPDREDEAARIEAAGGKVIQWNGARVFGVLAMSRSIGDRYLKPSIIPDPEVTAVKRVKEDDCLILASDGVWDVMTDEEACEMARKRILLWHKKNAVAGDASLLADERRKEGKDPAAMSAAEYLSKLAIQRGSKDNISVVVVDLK
For `H122R`, “relative binding score” read 27.9%.
Under “relative binding score”, `N165R` is recorded as 8.29%.
`L8T`: “relative binding score” 78.6%.
For `V136S`, “relative binding score” read 39.8%.
`I133D`: “relative binding score” 116%.
`K116M`: “relative binding score” 67%.

Sample 3
Target: Histone acetyltransferase KAT6A, winged helix 2, GST fusion (KAT6A, Homo sapiens, UniProt Q92794, residues 85-181)
Method: protein binding microarray
Molecule type: double-stranded DNA, one strand shown
Sample: in vitro
Concentration: not given
Setting: 8-mer, flanks averaged, mean of 2 arrays, mostly near background
Reference: not given
Reading: higher = stronger binding
Residues (chain): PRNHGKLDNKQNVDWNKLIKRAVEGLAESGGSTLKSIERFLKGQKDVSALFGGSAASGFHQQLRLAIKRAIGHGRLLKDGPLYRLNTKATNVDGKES
`ACTTGCGA` gave an E-score of 0.121.
For `ATCCCAGA`, the E-score was 0.0737.
For `CCTCTATC`, the E-score was -0.0568.
For `TATCGTGA`, the E-score was -0.0964.
With `CTGGAGCA` the E-score was 0.0503.
The E-score of `AAAGATCG` is reported as -0.0383.
With `GGGAAAAC` the E-score was -0.00843.
`CAACAAAG` has an E-score of 0.0796.
The E-score of `ATCGGTTC` is reported as 0.0526.
The E-score of `ACTACCAT` is reported as -0.13.
For `GGTTGCCA`, the E-score was 0.0639.

Single results of other studies
With `PhoQ, residues 284 288 289 292 302 303 TNSAEL` the fold induction was 21.7 (PhoP, residues 12 14 15 18 19 LWHVM (Escherichia coli, UniProt P23836); Sort-seq, item: YFP reporter; E. coli; PhoQ-PhoP variant library, together with: 10 µM Mg2+; reference: high Mg2+ state, higher = stronger signaling).

A few entries again (sample 3):
For `CCTCTATC`, the E-score was -0.0568.
For `TATCGTGA`, the E-score was -0.0964.
